Measurements from different studies.
Compare with care: the assays were run in different laboratories. ± gives the spread as reported.
HCRTR1: Orexin/Hypocretin receptor type 1 (HCRTR1, Homo sapiens, UniProt O43613)
Sequence of UniProt O43613 (whole entry, looked up): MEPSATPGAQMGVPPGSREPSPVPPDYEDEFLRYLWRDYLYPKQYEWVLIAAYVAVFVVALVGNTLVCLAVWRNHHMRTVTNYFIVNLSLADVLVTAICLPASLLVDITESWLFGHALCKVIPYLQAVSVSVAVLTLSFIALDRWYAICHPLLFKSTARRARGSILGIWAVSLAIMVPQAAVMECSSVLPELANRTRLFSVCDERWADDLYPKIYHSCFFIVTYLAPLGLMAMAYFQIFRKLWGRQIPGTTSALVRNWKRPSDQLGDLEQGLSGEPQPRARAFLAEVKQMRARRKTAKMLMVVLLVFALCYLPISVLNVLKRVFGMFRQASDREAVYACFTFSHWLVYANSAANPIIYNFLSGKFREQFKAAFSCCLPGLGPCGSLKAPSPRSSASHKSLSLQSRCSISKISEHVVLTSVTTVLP
Drd3: D(3) dopamine receptor (Drd3, Rattus norvegicus, UniProt P19020)
Sequence of UniProt P19020 (whole entry, looked up): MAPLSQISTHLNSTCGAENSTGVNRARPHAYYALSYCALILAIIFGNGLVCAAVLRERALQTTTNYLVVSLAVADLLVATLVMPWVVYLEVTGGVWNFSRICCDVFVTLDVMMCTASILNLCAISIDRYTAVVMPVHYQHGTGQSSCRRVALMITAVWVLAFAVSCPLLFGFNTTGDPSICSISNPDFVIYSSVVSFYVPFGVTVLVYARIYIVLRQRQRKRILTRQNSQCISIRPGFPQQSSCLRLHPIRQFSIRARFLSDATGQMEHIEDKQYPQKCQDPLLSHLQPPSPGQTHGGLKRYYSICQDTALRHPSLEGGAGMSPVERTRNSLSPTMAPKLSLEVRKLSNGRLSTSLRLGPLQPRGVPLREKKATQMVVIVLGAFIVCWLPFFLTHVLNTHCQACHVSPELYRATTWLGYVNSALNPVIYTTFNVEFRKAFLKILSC
PLA2G4A: Cytosolic phospholipase A2 (PLA2G4A, Homo sapiens, UniProt P47712)
Sequence of UniProt P47712 (whole entry, looked up): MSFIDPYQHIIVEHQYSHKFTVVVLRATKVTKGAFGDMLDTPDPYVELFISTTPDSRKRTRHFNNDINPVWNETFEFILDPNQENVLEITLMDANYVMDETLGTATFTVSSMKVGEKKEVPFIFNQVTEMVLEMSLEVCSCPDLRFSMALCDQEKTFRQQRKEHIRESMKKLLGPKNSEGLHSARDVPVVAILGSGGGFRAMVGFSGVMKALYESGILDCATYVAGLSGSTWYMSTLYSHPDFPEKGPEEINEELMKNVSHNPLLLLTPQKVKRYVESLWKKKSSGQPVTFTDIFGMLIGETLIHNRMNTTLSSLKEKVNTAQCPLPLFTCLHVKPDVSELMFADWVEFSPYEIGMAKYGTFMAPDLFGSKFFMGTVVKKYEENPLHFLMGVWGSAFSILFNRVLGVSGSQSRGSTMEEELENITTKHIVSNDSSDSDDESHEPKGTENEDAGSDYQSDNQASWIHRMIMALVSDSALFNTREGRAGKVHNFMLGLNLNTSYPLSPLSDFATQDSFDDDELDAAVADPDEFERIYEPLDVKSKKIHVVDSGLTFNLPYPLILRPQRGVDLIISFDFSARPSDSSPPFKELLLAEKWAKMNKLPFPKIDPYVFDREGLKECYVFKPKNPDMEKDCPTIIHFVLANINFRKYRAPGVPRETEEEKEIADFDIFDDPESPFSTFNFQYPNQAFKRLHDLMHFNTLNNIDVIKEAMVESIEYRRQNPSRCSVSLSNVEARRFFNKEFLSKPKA
Sequence of UniProt Q62398 (whole entry, unmodified, looked up): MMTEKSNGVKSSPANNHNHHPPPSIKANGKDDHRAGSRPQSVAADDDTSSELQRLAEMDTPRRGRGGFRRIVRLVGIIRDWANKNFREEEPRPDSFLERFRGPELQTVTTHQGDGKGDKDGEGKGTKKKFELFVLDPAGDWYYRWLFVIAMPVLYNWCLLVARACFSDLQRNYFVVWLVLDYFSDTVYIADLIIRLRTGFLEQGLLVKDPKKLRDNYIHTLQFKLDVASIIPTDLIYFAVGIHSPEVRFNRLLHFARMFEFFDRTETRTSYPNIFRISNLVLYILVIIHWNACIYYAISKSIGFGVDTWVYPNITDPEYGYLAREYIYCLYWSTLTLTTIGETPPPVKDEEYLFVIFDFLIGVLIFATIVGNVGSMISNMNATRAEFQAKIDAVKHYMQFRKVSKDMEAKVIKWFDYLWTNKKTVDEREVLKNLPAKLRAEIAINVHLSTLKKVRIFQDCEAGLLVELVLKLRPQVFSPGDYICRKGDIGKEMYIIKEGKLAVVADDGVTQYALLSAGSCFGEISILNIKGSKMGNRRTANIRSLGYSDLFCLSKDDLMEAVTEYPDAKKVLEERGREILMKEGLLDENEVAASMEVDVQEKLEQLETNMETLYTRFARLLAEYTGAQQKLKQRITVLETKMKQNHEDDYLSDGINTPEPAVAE
Sequence of UniProt P35367 (whole entry, looked up): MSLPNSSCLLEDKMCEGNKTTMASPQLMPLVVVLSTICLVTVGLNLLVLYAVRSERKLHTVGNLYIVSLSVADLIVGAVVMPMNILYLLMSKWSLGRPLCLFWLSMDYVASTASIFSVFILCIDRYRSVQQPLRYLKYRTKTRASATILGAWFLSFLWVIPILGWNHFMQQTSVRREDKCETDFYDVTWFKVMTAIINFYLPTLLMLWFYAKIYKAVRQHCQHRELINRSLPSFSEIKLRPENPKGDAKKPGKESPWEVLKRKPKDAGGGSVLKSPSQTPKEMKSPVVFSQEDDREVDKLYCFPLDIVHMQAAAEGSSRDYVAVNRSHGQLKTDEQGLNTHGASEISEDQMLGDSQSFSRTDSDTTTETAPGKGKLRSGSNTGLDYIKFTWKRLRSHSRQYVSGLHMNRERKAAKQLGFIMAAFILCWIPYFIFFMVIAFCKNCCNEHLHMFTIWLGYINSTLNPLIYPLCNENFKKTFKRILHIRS
Sequence of UniProt O75469 (whole entry, looked up): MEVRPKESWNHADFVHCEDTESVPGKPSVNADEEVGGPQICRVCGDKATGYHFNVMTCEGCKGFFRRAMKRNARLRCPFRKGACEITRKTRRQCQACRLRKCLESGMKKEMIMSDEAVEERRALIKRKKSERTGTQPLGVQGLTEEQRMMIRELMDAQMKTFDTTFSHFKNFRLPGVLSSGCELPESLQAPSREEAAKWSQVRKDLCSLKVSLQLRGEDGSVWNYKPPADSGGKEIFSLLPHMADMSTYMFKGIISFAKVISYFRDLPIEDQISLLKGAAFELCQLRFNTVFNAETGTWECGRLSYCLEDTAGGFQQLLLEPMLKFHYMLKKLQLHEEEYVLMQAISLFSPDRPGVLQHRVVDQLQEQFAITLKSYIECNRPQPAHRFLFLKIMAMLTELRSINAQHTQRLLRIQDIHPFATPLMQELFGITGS

SMILES	target	test	system	conditions	quantity	result
COc1ccc(CC2c3cc(OC)c(OC)cc3CCN2CC(=O)NCc2ccncc2)cc1OC (stereo not shown)	HCRTR1	–	–	–	Kd	1010 ± 160 nM
CCCN(CC[C@]1(O)C[C@@H](NC(=O)c2cccc(F)c2)C1)[C@H]1CCc2nc(N)sc2C1 (relative stereo)	Drd3	ligand displacement, radioligand	–	cell membranes	Ki	1.9 nM
NC(=O)NCCCc1c[nH]cn1	HRH1 (Homo sapiens, UniProt P35367)	ligand displacement, radioligand	–	cell membranes	Ki	> 10000 nM
CCCCCCCNC(=O)CN1CCc2cc(OC)c(OC)cc2C1Cc1ccc(OC)c(OC)c1 (stereo not shown)	HCRTR1	–	–	–	Kd	589 ± 230 nM
CCNc1cc(CC2c3cc(OC)c(OC)cc3CCN2CC(=O)NCc2ccccc2)ccc1OC (stereo not shown)	HCRTR1	calcium signal, antagonist, fluorescence	–	–	Kb	309 nM
O=C(/C=C/C=C/c1ccc2c(c1)OCO2)N1CCCCC1	NR1I2 (Homo sapiens, UniProt O75469)	MDR1 promoter reporter, activator, luciferase reporter	LS180, PXR-transfected	24 h, 1% charcoal-stripped FBS	EC50	3090 nM
CCCN(CC[C@]1(O)C[C@@H](NC(=O)c2cccc(OC)c2)C1)[C@H]1CCc2nc(N)sc2C1 (relative stereo)	dopamine D1-like receptor, rat	radioligand binding	rat striatal membranes	with: [3H]SCH23390	Ki	64200 ± 1760 nM
CCCOc1ccc(CC2c3cc(OCCC)c(OC)cc3CCN2CC(=O)NCc2ccccc2)cc1OC (stereo not shown)	HCRTR1	calcium signal, antagonist, fluorescence	–	–	Kb	16.1 nM
Nc1nc2c(ncn2[C@@H]2O[C@@H]3COP(=O)(O)O[C@H]3[C@H]2O)c(=O)[nH]1	Cnga2 (Mus musculus, UniProt Q62398, G204E/M2V)	channel current, agonist, inside-out patch clamp	Xenopus oocytes	holding +100 mV	EC50	1900 nM
CCCN(CCC1(O)CC(NC(=O)c2ccc(F)cc2)C1)[C@H]1CCc2nc(N)sc2C1 (stereo in doubt)	dopamine D1-like receptor, rat	radioligand binding	rat striatal membranes	with: [3H]SCH23390	Ki	50000 ± 4890 nM
COc1cc2c(cc1OC)C(Cc1cc(OC)c(OC)c(OC)c1)N(CC(=O)NCc1ccccc1)CC2 (stereo not shown)	HCRTR1	calcium signal, antagonist, fluorescence	–	–	Kb	> 10000 nM
CCCN(CCC1(O)CC(NS(=O)(=O)c2ccccc2F)C1)[C@H]1CCc2nc(N)sc2C1 (stereo in doubt)	Drd3	ligand displacement, radioligand	–	cell membranes	Ki	1 nM
CCCCCCOc1ccc(OCCCC(=O)C(=O)NCCCCC(=O)O)cc1	PLA2G4A	enzyme activity, mixed micelle	–	–	XI(50)	0.013 mole fraction
COc1cc2c(cc1OC)C(Cc1ccc(N(C)C)cc1)N(CC(=O)NCc1ccccc1)CC2 (stereo not shown)	HCRTR1	calcium signal, antagonist, fluorescence	–	–	Kb	253 nM
CCCN(CC[C@]1(O)C[C@@H](NS(=O)(=O)c2cccc(Cl)c2)C1)[C@H]1CCc2nc(N)sc2C1 (relative stereo)	Drd3	ligand displacement, radioligand	–	cell membranes	Ki	2.5 nM
COc1cc2c(cc1OC)C(Cc1ccc(OCCN3CCCCC3)c(OC)c1)N(CC(=O)NCc1ccccc1)CC2 (stereo not shown)	HCRTR1	calcium signal, antagonist, fluorescence	–	–	Kb	> 10000 nM
CCCCCCOc1ccc(CCCCC(=O)C(=O)NCCCC(=O)OCC)cc1	PLA2G4A	enzyme activity, mixed micelle	–	–	XI(50)	0.02 mole fraction
COc1cc2c(cc1OC)C(Cc1ccc3ccccc3c1)N(CC(=O)NCc1ccccc1)CC2 (stereo not shown)	HCRTR1	calcium signal, antagonist, fluorescence	–	–	Kb	245 nM
CCCN(CCC1(O)CC(NS(=O)(=O)c2cccc(F)c2)C1)[C@H]1CCc2nc(N)sc2C1 (stereo in doubt)	dopamine D1-like receptor, rat	radioligand binding	rat striatal membranes	with: [3H]SCH23390	Ki	117000 ± 10200 nM
